Measurements collected from several papers.
Each numbered part is a random draw from the data of one study; scales do not carry over between parts. Substitutions count along the parent as printed.
Sequence of UniProt P54764 (whole entry, looked up): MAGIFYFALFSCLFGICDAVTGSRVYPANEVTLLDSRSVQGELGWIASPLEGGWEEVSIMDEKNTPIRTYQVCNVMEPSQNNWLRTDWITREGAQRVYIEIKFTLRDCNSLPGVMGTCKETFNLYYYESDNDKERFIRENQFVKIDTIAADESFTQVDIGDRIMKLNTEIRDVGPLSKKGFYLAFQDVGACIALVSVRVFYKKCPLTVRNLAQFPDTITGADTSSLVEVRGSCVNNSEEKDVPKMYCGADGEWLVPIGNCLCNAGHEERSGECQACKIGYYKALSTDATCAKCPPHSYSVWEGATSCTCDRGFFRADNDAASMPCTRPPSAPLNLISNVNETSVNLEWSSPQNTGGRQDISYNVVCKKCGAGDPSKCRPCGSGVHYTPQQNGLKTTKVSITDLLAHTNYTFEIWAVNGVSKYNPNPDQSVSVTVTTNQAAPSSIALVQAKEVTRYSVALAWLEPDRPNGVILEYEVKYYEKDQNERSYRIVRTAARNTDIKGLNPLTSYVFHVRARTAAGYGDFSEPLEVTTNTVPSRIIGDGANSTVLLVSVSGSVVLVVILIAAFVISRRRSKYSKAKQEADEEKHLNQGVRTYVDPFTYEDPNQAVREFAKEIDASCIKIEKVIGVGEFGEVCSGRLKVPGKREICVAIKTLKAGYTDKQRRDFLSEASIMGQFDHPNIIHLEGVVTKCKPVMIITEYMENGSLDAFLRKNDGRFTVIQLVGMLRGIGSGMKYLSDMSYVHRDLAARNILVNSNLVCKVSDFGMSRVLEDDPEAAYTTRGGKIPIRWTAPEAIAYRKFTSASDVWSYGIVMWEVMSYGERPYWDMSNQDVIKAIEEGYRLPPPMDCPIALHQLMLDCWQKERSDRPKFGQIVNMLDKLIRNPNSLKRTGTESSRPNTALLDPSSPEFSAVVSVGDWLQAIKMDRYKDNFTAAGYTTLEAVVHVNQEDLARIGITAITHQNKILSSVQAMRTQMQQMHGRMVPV
Sequence of UniProt Q9H2X6 (whole entry, looked up): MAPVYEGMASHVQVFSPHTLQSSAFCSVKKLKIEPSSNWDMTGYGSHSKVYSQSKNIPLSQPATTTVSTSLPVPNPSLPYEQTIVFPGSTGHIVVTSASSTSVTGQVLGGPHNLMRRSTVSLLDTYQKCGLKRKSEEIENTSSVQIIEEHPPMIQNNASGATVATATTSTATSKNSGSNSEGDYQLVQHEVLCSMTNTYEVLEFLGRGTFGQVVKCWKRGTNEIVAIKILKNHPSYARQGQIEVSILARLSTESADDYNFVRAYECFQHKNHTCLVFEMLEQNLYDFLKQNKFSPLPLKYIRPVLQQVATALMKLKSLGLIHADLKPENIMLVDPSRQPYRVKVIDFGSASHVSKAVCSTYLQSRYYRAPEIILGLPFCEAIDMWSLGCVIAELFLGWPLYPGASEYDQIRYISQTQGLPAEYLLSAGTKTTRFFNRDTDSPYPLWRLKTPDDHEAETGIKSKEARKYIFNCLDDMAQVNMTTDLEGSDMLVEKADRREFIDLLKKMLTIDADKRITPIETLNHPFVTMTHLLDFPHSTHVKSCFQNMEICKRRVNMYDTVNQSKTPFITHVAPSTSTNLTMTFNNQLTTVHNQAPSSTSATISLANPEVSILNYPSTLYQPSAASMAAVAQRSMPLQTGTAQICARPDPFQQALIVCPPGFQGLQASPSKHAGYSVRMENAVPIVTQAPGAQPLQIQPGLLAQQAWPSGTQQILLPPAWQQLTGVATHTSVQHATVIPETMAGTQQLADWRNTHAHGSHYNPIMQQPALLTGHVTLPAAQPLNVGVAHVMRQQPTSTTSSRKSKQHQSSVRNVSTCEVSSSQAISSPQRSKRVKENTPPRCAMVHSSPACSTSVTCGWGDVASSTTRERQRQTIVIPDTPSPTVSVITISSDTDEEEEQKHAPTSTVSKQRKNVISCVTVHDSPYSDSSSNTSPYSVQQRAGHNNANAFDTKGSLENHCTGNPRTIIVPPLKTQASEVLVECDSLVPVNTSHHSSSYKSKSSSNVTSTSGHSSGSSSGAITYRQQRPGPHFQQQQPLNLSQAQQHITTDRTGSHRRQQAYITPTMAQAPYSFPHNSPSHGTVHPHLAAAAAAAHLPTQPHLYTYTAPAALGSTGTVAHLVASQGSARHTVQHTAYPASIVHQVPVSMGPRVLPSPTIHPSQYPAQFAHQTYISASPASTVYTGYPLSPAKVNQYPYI
Sequence of UniProt O95819 (whole entry, looked up): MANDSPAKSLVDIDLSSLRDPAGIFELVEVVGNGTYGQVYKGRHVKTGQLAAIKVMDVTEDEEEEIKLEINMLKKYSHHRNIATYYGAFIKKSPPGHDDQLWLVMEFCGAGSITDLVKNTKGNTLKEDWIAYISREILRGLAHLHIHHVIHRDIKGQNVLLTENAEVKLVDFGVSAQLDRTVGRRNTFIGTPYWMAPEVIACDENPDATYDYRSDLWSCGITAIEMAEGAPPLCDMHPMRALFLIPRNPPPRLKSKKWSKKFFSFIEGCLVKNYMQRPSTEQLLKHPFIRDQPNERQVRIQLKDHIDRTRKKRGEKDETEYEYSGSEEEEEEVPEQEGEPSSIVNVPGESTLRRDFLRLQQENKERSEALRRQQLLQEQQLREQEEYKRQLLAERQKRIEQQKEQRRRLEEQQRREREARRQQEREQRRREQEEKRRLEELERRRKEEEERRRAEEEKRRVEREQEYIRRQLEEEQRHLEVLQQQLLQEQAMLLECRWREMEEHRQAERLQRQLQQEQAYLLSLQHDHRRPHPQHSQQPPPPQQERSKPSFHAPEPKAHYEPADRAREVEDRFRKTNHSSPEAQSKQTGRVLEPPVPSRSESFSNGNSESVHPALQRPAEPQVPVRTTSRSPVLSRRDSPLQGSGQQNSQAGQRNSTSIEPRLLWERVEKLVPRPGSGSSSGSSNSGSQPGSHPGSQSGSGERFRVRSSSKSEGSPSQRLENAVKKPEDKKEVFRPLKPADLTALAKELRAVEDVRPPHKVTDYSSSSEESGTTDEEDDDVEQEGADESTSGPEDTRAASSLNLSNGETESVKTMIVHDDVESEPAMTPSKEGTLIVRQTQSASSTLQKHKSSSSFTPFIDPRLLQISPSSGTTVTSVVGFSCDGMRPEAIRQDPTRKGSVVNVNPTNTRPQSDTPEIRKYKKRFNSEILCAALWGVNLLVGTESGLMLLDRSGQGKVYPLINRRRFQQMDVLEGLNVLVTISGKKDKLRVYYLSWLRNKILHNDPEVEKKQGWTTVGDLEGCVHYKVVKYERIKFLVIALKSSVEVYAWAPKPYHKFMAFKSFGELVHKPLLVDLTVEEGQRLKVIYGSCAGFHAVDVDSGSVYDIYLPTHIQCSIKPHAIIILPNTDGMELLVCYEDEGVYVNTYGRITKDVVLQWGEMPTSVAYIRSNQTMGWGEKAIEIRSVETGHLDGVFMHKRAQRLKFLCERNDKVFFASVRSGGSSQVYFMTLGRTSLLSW
Sequence of UniProt Q8NE63 (whole entry, looked up): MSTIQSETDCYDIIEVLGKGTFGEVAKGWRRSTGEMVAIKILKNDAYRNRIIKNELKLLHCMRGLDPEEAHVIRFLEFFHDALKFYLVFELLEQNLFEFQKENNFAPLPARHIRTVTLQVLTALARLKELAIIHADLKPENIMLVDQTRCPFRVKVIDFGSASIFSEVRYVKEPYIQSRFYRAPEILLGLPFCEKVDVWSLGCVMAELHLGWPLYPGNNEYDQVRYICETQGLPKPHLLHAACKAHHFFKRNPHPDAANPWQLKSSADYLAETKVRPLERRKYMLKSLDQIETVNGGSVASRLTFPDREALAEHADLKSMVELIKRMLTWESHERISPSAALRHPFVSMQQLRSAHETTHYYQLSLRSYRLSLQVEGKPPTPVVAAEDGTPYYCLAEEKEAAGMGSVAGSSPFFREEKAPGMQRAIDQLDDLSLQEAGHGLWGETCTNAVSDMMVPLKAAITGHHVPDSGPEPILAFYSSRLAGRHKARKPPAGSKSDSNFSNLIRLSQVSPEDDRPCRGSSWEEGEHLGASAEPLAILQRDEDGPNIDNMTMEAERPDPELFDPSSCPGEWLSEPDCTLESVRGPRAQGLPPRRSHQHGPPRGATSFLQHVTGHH
Sequence of UniProt Q16644 (whole entry, looked up): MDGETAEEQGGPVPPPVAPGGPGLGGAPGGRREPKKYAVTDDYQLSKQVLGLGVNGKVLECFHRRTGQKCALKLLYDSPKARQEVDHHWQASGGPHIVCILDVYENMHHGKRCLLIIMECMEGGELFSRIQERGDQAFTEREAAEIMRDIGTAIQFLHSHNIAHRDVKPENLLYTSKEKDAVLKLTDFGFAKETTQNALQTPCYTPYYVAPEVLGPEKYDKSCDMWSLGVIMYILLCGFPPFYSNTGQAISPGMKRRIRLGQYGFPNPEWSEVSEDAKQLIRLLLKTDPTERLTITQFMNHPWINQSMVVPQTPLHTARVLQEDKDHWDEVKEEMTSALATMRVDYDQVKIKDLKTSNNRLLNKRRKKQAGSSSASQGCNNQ

Series 1
Target: JUNB, bZIP domain (human)
Method: DHFR protein complementation
Matrix: yeast
Notes: single substitutions, most at no-binding floor
Reference: wild-type JUN-FOS pair
Reading: higher = stronger binding
Quantity: binding fitness
Starting sequence: JUN, bZIP domain (human); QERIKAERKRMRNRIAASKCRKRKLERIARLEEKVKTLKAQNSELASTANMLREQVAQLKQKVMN; partner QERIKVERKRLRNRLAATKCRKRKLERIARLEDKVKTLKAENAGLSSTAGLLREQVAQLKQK
R53H: -1.39 natural log
K36P: -1.44 natural log
N42M: -1.54 natural log
A40W: -1.38 natural log
K36W: -1.46 natural log
L52E: -1.64 natural log
N42I: -1.5 natural log
A46F: -1.36 natural log

Series 2
SMILES: O=c1c(-c2ccc(F)cc2)c(-c2ccncc2)[nH]n1-c1ccc(Cl)cc1
Read-out: enzyme activity
Action: inhibitor
Concentration: 0.5 µM
Reference: control
Quantity: remaining activity
Cyclin-dependent kinase 4, with cyclin D3 (CDK4, Homo sapiens, UniProt P11802): 101%
HIPK2 (Homo sapiens, UniProt Q9H2X6): 89%
MAP4K4 (Homo sapiens, UniProt O95819): 93.5%
MAPKAPK3 (Homo sapiens, UniProt Q16644): 101%
BLK (Homo sapiens, UniProt P51451): 91.6%
Cyclin-dependent kinase 1, with cyclin B (CDK1, Homo sapiens, UniProt P06493): 106%
WNK3 (Homo sapiens, UniProt Q9BYP7): 93.6%
HIPK4 (Homo sapiens, UniProt Q8NE63): 94.6%
TSSK2 (Homo sapiens, UniProt Q96PF2): 80%
Cyclin-dependent kinase 6, with cyclin D3 (CDK6, Homo sapiens, UniProt Q00534): 93.7%
EPHA4 (Homo sapiens, UniProt P54764): 93.5%
RPS6KA6 (Homo sapiens, UniProt Q9UK32): 90.3%

Series 3
Target: Muscarinic acetylcholine receptor M2 (CHRM2, Homo sapiens, UniProt P08172)
Sequence of UniProt P08172 (whole entry, looked up): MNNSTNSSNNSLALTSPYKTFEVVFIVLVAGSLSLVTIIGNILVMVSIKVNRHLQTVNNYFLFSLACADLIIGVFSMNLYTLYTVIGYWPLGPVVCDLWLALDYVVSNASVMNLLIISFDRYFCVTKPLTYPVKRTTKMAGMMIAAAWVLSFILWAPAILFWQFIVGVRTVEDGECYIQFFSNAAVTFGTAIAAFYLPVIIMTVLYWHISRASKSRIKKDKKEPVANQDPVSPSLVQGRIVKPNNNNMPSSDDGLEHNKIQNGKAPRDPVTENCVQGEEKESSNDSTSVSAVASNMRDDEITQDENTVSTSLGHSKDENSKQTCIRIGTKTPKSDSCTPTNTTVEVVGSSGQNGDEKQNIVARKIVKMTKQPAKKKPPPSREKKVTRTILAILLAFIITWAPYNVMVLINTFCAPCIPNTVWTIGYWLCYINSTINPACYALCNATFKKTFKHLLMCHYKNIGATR
Read-out: ligand displacement
Concentration: 10 µM
Quantity: inhibition
Nc1cnc(N2CCc3cc(S(=O)(=O)Nc4c(F)cc(Cl)cc4F)cc(N4CCCC4=O)c32)nc1: 3.7%
Nc1nc(NCc2ccccc2)nc(-c2ccccc2CO)n1: 23.2%
COc1ccc2cc(OCC3(C(=O)O)CN(C(=O)c4ccc(F)cc4)C3)ccc2c1: 16.7%
O=C(N[C@H]1CCCCC/C=C\C2C[C@@]2(C(=O)O)NC(=O)[C@@H]2C[C@@H](Oc3ccncc3)CN2C1=O)OC1CCCC1 (stereo partly drawn): -1.71%
CS(=O)(=O)N1CCCC(NC(=O)[C@H](CCC2CCCCC2)NC(=O)c2ccc(CNC(=O)c3cnc4ccccn34)cc2)C1 (stereo partly drawn): 18.5%
COc1cc(N[C@@H]2CCCC[C@]2(O)C(F)(F)F)ccc1F: 3.81%
O=C(NS(=O)(=O)c1ccc(NCC2CCOCC2)c([N+](=O)[O-])c1)c1ccc(N2CCN(Cc3ccc(C(F)(F)F)cc3-c3ccc(Cl)cc3)CC2)cc1Oc1cnc2[nH]ccc2c1: 1.6%
O=C(NCCCC1CCCCC1)c1ccc(CNC(=O)c2cnn(-c3ccccc3)c2C(F)(F)F)cc1: 19.3%
O=C(Nc1ccc(Oc2ccc(F)cc2)cc1)N1CCc2ncccc2[C@H]1c1ccc(F)cc1: -1.78%
COCCOc1nc(-c2ccc(Cl)nc2)nc2c1CN(C(=O)c1ncn3ccccc13)CC2: 19.3%
CC[C@H](CC(=O)O)n1c(=O)c2ncccc2n(Cc2cn(C)c3cc(C)cc(C)c23)c1=O: 12%
C[C@H](c1ccnc(Nc2nc3ccc(-c4cc(N(C)C)ncn4)cc3[nH]2)c1)N1CCN(C(=O)CC(F)(F)F)CC1: 32.9%
CO[C@H]1CC[C@H](CNc2ccc(S(=O)(=O)NC(=O)c3ccc(N4CCN(CC5=C(c6ccc(Cl)cc6)CC(C)(C)CC5)CC4)cc3Oc3cnc4[nH]ccc4c3)cc2[N+](=O)[O-])CC1: -2.68%
C[C@@H](c1cccc(C#N)c1)n1cc(Cl)cc(C(N)=O)c1=N: 0.11%

Series 4
Target: Sal-like protein 4, full length isoform B (SALL4, Homo sapiens, UniProt Q9UJQ4-2, residues 1-616)
Method: universal PBM
Form: double-stranded DNA, one strand shown
Matrix: in vitro
Concentration: not given
Notes: 8-mer, flanks averaged, mean of replicates
Reading: higher = stronger binding
Quantity: E-score
AGTTGGAG: -0.0967
ACTAAACT: 0.0792
AGTGCTTC: -0.113
CCGAGAGG: -0.146
GTGTTTTA: 0.188
TGAATTAA: 0.291
AGTGACGA: 0.0912
ACCTGCCT: -0.0787

Some of these lines once more (series 4):
AGTTGGAG: -0.0967
ACTAAACT: 0.0792
AGTGCTTC: -0.113
CCGAGAGG: -0.146
GTGTTTTA: 0.188
TGAATTAA: 0.291
